Published values of several laboratories.
Protocols differ between the studies behind these lines. ± marks the error that the study gave.

Compound	method	matrix	concentration	time	temperature	notes	measured concentration [ng/mL]
COC(=O)C(c1ccccc1Cl)N1CCC2SC(=O)C=C2C1 (stereo not shown)	LC-MS/MS	human plasma	2 ng/mL spiked	8 h	room temperature		2.2 ± 0.4
Cc1ccc(/N=N/c2c(O)ccc3ccccc23)c(C)c1		rat whole blood QC samples	16.0 µg/L	12 h	room temperature	short-term stability	15.9
COC(=O)C(c1ccccc1Cl)N1CCC(SCC(=O)c2cccc(OC)c2)C(=CC(=O)O)C1 (stereo not shown)	LC-MS/MS	human plasma	50 ng/mL			after freeze-thaw cycles	51.5 ± 3.8
Cc1[nH]c(/C=C2\C(=O)Nc3ccc(F)cc32)c(C)c1NC(=O)CCN1CCN(C)CC1		dog plasma	80 ng/mL nominal	30 d	-80 °C	frozen storage	71.3
COc1ccc(-c2cc(=O)c3c(O)cc(O[C@@H]4O[C@H](CO[C@@H]5O[C@@H](C)[C@H](O)[C@@H](O)[C@H]5O)[C@@H](O)[C@H](O)[C@H]4O)cc3o2)cc1	short-term stability	rat plasma		8 h	room temperature	medium QC level	755 ± 10.8
Oc1ccc2ccccc2c1/N=N/c1ccccc1		rat whole blood QC samples	16.0 µg/L	8 h	room temperature	short-term stability	15.7
CNC(=O)N[C@]1(C)CCC[C@@]2(C)C3CC[C@@]4(C)C[C@]3(CCC21)CC4=O (single isomer, unassigned)		rat plasma	400 ng/mL			freeze-thaw stability, three cycles	403 ± 5.15
COc1ccnc(C[S+]([O-])c2nc3cc(-n4cccc4)ccc3[nH]2)c1C (stereo not shown)		rat plasma in autosampler	250 ng/mL	24 h	4 °C		238
C[N+](C)(C)CC(CC(=O)[O-])OC(=O)CCC(=O)Nc1ccn([C@@H]2O[C@H](CO)[C@@H](O)C2(F)F)c(=O)n1 (stereo partly shown)		THU-treated rat plasma	15.00 ng/mL	2 months	-80 °C	frozen storage, low QC	15.3 ± 1.9
COc1ccc([C@@H]2CC(=O)c3c(O)cc(O[C@@H]4O[C@H](CO[C@@H]5O[C@@H](C)[C@H](O)[C@@H](O)[C@H]5O)[C@@H](O)[C@H](O)[C@H]4O)cc3O2)cc1O		rat plasma	15.62 ng/mL	12 h	room temperature	autosampler stability	16.9 ± 0.23

Some of these lines once more:
Compound	method	matrix	concentration	time	temperature	notes	measured concentration [ng/mL]
COc1ccc(-c2cc(=O)c3c(O)cc(O[C@@H]4O[C@H](CO[C@@H]5O[C@@H](C)[C@H](O)[C@@H](O)[C@H]5O)[C@@H](O)[C@H](O)[C@H]4O)cc3o2)cc1	short-term stability	rat plasma		8 h	room temperature	medium QC level	755 ± 10.8
Cc1[nH]c(/C=C2\C(=O)Nc3ccc(F)cc32)c(C)c1NC(=O)CCN1CCN(C)CC1		dog plasma	80 ng/mL nominal	30 d	-80 °C	frozen storage	71.3
